Assay results gathered from unrelated publications.
Each line is one published result; not all experiments were run side by side. Numbers after ± are the reported error.

For `O=C(CSc1nnc(-c2ccccc2O)n1-c1ccccc1)Nc1cccc(C(=O)O)c1`, the logD was 0.2 (octanol/buffer; pH 7.4).
`O=C(CNc1cccc2c1C(=O)N(C1CCC(=O)NC1=O)C2=O)NCCCCCCN1CCc2c(c3ccccc3n2Cc2ccc(C(=O)NO)cc2)C1` (stereo not drawn) gave a logD of 1.8 (HPLC-based method; pH 7.4).
`Cn1nccc1-c1ccc(-c2cc(C(=O)O)cc3cc(-c4ccc(C(F)(F)F)cc4)ccc23)cc1` gave a logD of 1 (HPLC retention; pH 7.4, chromatographic logD).
`CN(c1ccc(F)cc1)c1c(-c2cc(Cl)ccn2)nc2ccccn12` gave a logD of greater than 4.2 (pH 7.4).
`COc1ccc([C@H]2COC[C@H](c3ccc(C(C)(C)C)cc3)N2)cc1` gave a logD of greater than 4.7 (shake-flask, 1-octanol/buffer; pH 7.4).
The logD of `COc1ccc(Cl)cc1-c1cc(=O)[nH]c(=S)n1CC(N)=O` is reported as 0.8.
`Fc1ccc([C@@H]2COC[C@H](c3cccc(Br)c3)N2)cc1` has a logD of greater than 4.7 (shake-flask, 1-octanol/buffer; pH 7.4).
`COc1ccc2nc(COc3ccc(CC4SC(=O)NC4=O)cc3)n(C)c2c1` (stereo not drawn) has a logD of 1.16 (octanol/buffer; 67 µM, pH 7.4).
The logD of `C[C@@H](NC(=O)c1ccccc1CCC(=O)NNC(=O)/C=C/C(=O)OCc1ccc2ccccc2n1)c1cccc2ccccc12` is reported as 5.
With `COc1cccc(OC)c1-c1cc(C(=O)NC2(C(=O)O)C3CC4CC(C3)CC2C4)nn1-c1ccc(C(=O)N(C)CCCN(C)CCCN(C)C(=O)CN2CCN(CC(=O)[O-])CCN(CC(=O)[O-])CCN(CC(=O)[O-])CC2)cc1C(C)C.[177Lu+3]` (stereo not drawn) the logD was -2.46 ± 0.03 (radiometric; 1-octanol/PBS; pH 7.4, 177Lu-labelled conjugate).
With `COc1cc2[nH]c(C)c(-c3ccc(C=O)cc3)c(=O)c2cc1Cl` the logD was 2.2 (chromatographic; pH 7.4).
With `Cc1ccc([C@H]2N[C@@H](c3ccc(C(F)(F)F)cc3)CO[C@@H]2C)cn1` the logD was greater than 4.7 (shake-flask, 1-octanol/buffer; pH 7.4).
The logD of `CN(CC(=O)Nc1ccc(N(C)c2ccc(Cl)c(F)c2)cc1)c1ccccc1N1CCCC1=O` is reported as 5.7 (shake-flask).
The logD of `COc1cc2[nH]c(C)c(-c3ccccc3C)c(=O)c2cc1Cl` is reported as 2.5 (chromatographic; pH 7.4).
For `CCCc1nc2c(C)cc(-c3nc4ccccc4n3C)cc2n1Cc1ccc(-c2ccccc2C(=O)O)cc1`, the logD was 2.7 (miniaturised shake-flask; 1-octanol/water).
For `CN1CCN(c2cccc(-c3ccc4ncnc(Nc5ccc(Cl)c(C(F)(F)F)c5)c4c3)c2)CC1`, the logD was greater than 4.3 (shake flask; 1-octanol/phosphate buffer; pH 7.4).
For `COc1cc2[nH]c(C)c(-c3ccc(CO)cc3)c(=O)c2cc1Cl`, the logD was 1.8 (chromatographic; pH 7.4).
`O=C(O)c1cc(-c2ccc(-c3ccncc3)cc2)c2ccc(-c3ccc(C(F)(F)F)cc3)cc2c1` gave a logD of 1.2 (HPLC retention; pH 7.4, chromatographic logD).
`COc1ccc(COC(=O)/C=C/C(=O)NNC(=O)CCc2ccccc2C(=O)N[C@H](C)c2cccc3ccccc23)cc1OC` gave a logD of 4.5.
With `Cc1c(NC(=O)C2CCCN2S(=O)(=O)c2ccccc2)c(=O)n(-c2ccccc2)n1C` (stereo not drawn) the logD was 1.14 (octanol/buffer; pH 7.4).
`COc1cc2[nH]c(C)c(-c3ccc(S(=O)(=O)N(C)C)cc3)c(=O)c2cc1Cl` has a logD of 2.2 (chromatographic; pH 7.4).
The logD of `COC(=O)c1ccccc1NC(=O)CSc1nnc(-c2ccc(OC)cc2)n1C` is reported as 2.75 (octanol/buffer; pH 7.4).
`COc1cccc(CCc2cc(O)c(=O)[nH]n2)c1` gave a logD of 0.3 ± 0.001 (shake-flask; pH 7.4).
With `COc1cc2[nH]c(C)c(-c3ccc(-c4ccccc4)cc3)c(=O)c2cc1Cl` the logD was 3.7 (chromatographic; pH 7.4).
`CCOC(=O)N1C[C@@H](c2sc(N(C)C)nc2C)N[C@@H](c2cc3ccccc3cc2OC)C1` gave a logD of greater than 4.7 (shake-flask, 1-octanol/buffer; pH 7.4).
`CC(=O)c1cccc(NC(=O)CSc2nnc(-c3cc4ccccc4cc3O)n2C)c1` has a logD of 3.47 (octanol/buffer; pH 7.4).
`COc1cc2[nH]c(C)c(-c3ccc(COc4ccccc4)cc3)c(=O)c2cc1Cl` has a logD of 3.7 (chromatographic; pH 7.4).
`CC(C)C[C@@H](NC(=O)[C@H](C)NC(=O)CNC(=O)[C@@H](NC=O)C(C)C)C(=O)N[C@@H](C)C(=O)N[C@@H](C(=O)N[C@H](C(=O)N[C@@H](C(=O)N[C@@H](Cc1c[nH]c2ccccc12)C(=O)N[C@H](CC(C)C)C(=O)N[C@@H](Cc1c[nH]c2ccccc12)C(=O)N[C@H](CC(C)C)C(=O)N[C@@H](Cc1c[nH]c2ccccc12)C(=O)N[C@H](CC(C)C)C(=O)N[C@@H](Cc1c[nH]c2ccccc12)C(=O)NCCO)C(C)C)C(C)C)C(C)C` has a logD of 5.37 (UHPLC retention on C18).
`COc1cc2[nH]c(C)c(-c3ccccc3)c(=O)c2cc1Cl` has a logD of 1.7 (chromatographic; pH 7.4).
The logD of `CC(=O)/C=C/C(=O)NNC(=O)CCc1ccccc1C(=O)N[C@H](C)c1cccc2ccccc12` is reported as 3.3.
`COc1ccc(NC(=O)CCSc2nnc3scc(-c4ccc(C)cc4)n23)cc1` has a logD of 3.68 (octanol/buffer; pH 7.4).
With `C[C@@H](NC(=O)c1ccccc1CCC(=O)NNC(=O)/C=C/C(=O)OC(C)(C)C)c1cccc2ccccc12` the logD was 3.9.
`Cc1ccc(Oc2ccc(NC(=O)CNc3ccccc3N3CCCC3=O)cc2)cc1` has a logD of 4.3 (shake-flask).
`COC(=O)c1ccc(NC(=O)CSc2nnnn2-c2ccccc2OC)cc1` has a logD of 3.55 (octanol/buffer; pH 7.4).
`CC(C)(C)c1ccc([C@@H]2COC[C@H](c3ccc(F)c(C#N)c3)N2)cc1` has a logD of greater than 4.7 (shake-flask, 1-octanol/buffer; pH 7.4).
`CC(C)CCNC(=O)c1ncccc1O` gave a logD of 3.2 (miniaturised shake-flask; 1-octanol/water).
`COc1cc2[nH]c(C)c(-c3ccc(C)cc3)c(=O)c2cc1Cl` has a logD of 2.8 (chromatographic; pH 7.4).
For `O=C(O)CNC(=O)c1ncccc1O`, the logD was -3.6 (miniaturised shake-flask; 1-octanol/water).
For `CCOC(=O)N1C[C@@H](C2CCCC2)N[C@@H](c2ccc(C(C)(C)C)cc2)C1`, the logD was greater than 4.7 (shake-flask, 1-octanol/buffer; pH 7.4).
For `CCNC(=O)c1ncccc1O`, the logD was 1.54 (miniaturised shake-flask; 1-octanol/water).
With `C=CCn1c(=O)c2cnc(Nc3ccc(N4CCN(C)CC4)cc3)nc2n1-c1ccc2c(n1)[C@@](O)(CC)CC2` the logD was 2.4 (pH 7.4).
The logD of `Cc1ccc(N(c2ccc(NC(=O)CN(C)c3ccccc3N3CCCC3=O)cc2)C(C)C)cc1` is reported as 5.7 (shake-flask).
`CCOC(=O)N1C[C@@H](c2ccc(-c3ccccc3)cc2)N[C@@H](C(CC)CC)C1` has a logD of greater than 4.7 (shake-flask, 1-octanol/buffer; pH 7.4).
`CCOc1cc(CC(=O)N[C@@H](CC(C)C)c2ccccc2N2CCCCC2)ccc1C(=O)O` has a logD of 2.5 (miniaturised shake-flask; 1-octanol/water).
`Cc1ccc(Nc2ncnc3ccc(-c4cccc(N5CCOCC5)c4)cc23)cc1` gave a logD of greater than 4.1 (shake flask; 1-octanol/phosphate buffer; pH 7.4).
The logD of `N#Cc1ccccc1[C@@H]1COCC2(CCOCC2)N1` is reported as less than -1 (shake-flask, 1-octanol/buffer; pH 7.4).
For `C[C@@H](NC(=O)c1ccccc1CCC(=O)NNC(=O)/C=C/C(=O)OCC1CCCC1)c1cccc2ccccc12`, the logD was 4.7.
`O=S(=O)(c1ccc(F)cc1)N1CCNCC1COc1ccc2ccccc2c1` (stereo not drawn) has a logD of 3.53 ± 0.07 (experimental partition; pH 7.4).
For `O=C(COc1ccccc1[N+](=O)[O-])Nc1ccccc1N1CCOCC1`, the logD was 3.08 (octanol/buffer; pH 7.4).
`C[C@@H]1CN(c2cccc(-c3ccc4ncnc(Nc5ncco5)c4c3)c2)C[C@H](C)O1` has a logD of greater than 3.6 (shake flask; 1-octanol/phosphate buffer; pH 7.4).
`Cc1ncc2c(c1O)COC2c1ccc(Cl)cc1` (stereo not drawn) gave a logD of 2.2 (miniaturised shake-flask; 1-octanol/water).

Some of these lines once more:
With `COc1cc2[nH]c(C)c(-c3ccc(C=O)cc3)c(=O)c2cc1Cl` the logD was 2.2 (chromatographic; pH 7.4).
With `Cc1ccc([C@H]2N[C@@H](c3ccc(C(F)(F)F)cc3)CO[C@@H]2C)cn1` the logD was greater than 4.7 (shake-flask, 1-octanol/buffer; pH 7.4).
The logD of `CN(CC(=O)Nc1ccc(N(C)c2ccc(Cl)c(F)c2)cc1)c1ccccc1N1CCCC1=O` is reported as 5.7 (shake-flask).
